{"data": "Published values of several laboratories", "note": "Protocols differ between the studies behind these lines. Several values in a cell are separate wells, animals, samples, runs or records. ± gives the spread as reported."}
{"SMILES": "NC1CCN(C(=O)Oc2ccc(C3CCCC4(C3)OOC3(O4)C4CC5CC(C4)CC3C5)cc2)CC1 (racemic)", "system": "male mouse, plasma", "conditions": "intravenous, 10 mg/kg", "endpoint": "MRT(0-inf)", "value": "152 min"}
{"SMILES": "C=C/C=C/C[C@@H](C)[C@@H](O)[C@H]1C(=O)N[C@@H](CC)C(=O)N(C)CC(=O)N(C)[C@@H](CC(C)C)C(=O)N[C@@H](C(C)C)C(=O)N(C)[C@@H](CC(C)C)C(=O)N[C@@H](C)C(=O)N[C@H](C)C(=O)N(C)[C@@H](CC(C)C)C(=O)N(C)[C@@H](CC(C)C)C(=O)N(C)[C@@H](C(C)C)C(=O)N1C", "system": "Wistar Kyoto rat, male, 24-hour urine", "conditions": "ip, 0.5 mg/kg/day, day 18", "endpoint": "urinary Mg2+ excretion", "value": "288 ± 95 µmol/day"}
{"SMILES": "CC(CCC(=O)NCC(=O)O)C1CCC2C3CCC4CC(OC5OC(C(=O)O)C(O)C(O)C5O)CCC4(C)C3CC(O)C12C (centres unmarked)", "system": "men, T/C genotype, plasma", "conditions": "dose not given, geometric mean", "endpoint": "glucuronide to parent ratio", "value": 1.03}
{"SMILES": "O=C1NC2(CC2)COc2ncc(F)cc2[C@H]2COCCN2c2ccn3ncc1c3n2", "system": "Sprague-Dawley rat, male", "conditions": "oral, 2.5 mg/kg/day, end of recovery, 4-week repeated-dose toxicity", "endpoint": "body weight", "value": "523 ± 41.7 g"}
{"SMILES": "NC(=O)[C@H](CCC(=O)O)NC(=O)[C@H](CCC(=O)O)NC(=O)[C@H](Cc1ccccc1)NC(=O)[C@H](Cc1ccccc1)NC(=O)OCC1c2ccccc2-c2ccccc21", "system": "mouse, blood", "conditions": "intravenous, 10 mg/kg, single dose", "endpoint": "MRT", "value": "13.2 min"}
{"SMILES": "CC[C@H](C)[C@H](NC(=O)[C@H](CCCCN)NC(=O)CNC(=O)[C@H](CC(C)C)NC(=O)[C@H](Cc1ccccc1)NC(=O)[C@H](CCCCN)NC(=O)[C@H](CO)NC(=O)[C@H](Cc1ccccc1)NC(=O)[C@H](Cc1c[nH]c2ccccc12)NC(=O)[C@H](CCC(N)=O)NC(=O)[C@@H](NC(=O)[C@H](Cc1ccccc1)NC(=O)CCCCCNC(=O)CN1CCN(CC(=O)O)CCN(CC(=O)O)CCN(CC(=O)O)CC1)C(C)C)C(=O)N[C@@H](CCC(=O)O)C(=O)N1CCC[C@H]1C(=O)N[C@@H](CC(=O)O)C(=O)N[C@H](C(=O)N[C@@H](CO)C(=O)N[C@@H](CCC(N)=O)C(=O)N[C@H](C(=O)N[C@@H](CCC(N)=O)C(=O)N[C@@H](CC(=O)O)C(=O)N1CCC[C@H]1C(=O)N[C@@H](CC(N)=O)C(=O)N[C@@H](CC(=O)O)C(=O)N[C@@H](CCC(N)=O)C(=O)N[C@@H](Cc1ccc(O)cc1)C(=O)N[C@@H](CCC(=O)O)C(=O)N1CCC[C@H]1C(=O)N[C@@H](Cc1ccccc1)C(=O)O)C(C)C)C(C)C [copper-64 labelled]", "system": "C57BL/6 male mouse, tumour-naive, large intestine", "conditions": "24 h", "endpoint": "tissue uptake", "value": "6.8 ± 0.9 %ID/g"}
{"SMILES": "CCN1CC2(COC)C(O)CC(OC)C34C5CC6(O)C(OC)C(O)C(O)(C5C6OC(=O)c5ccccc5)C(C(OC)C23)C14 (centres unmarked)", "system": "Sprague-Dawley rat, plasma", "conditions": "oral, dose not given, with NADES in PCW extract", "endpoint": "Tmax", "value": "40 ± 8.64 min"}
{"SMILES": "CC[C@H](C)[C@H](NC(=O)CNC(=O)[C@H](CCSC)NC(=O)[C@H](CCC(N)=O)NC(=O)[C@H](C)NC(=O)[C@H](CCC(N)=O)NC(=O)[C@@H](NC(=O)[C@H](CC(C)C)NC(=O)[C@H](C)NC(=O)[C@H](CO)NC(=O)[C@H](CCSC)NC(=O)[C@H](CCC(=O)O)NC(=O)[C@H](CC(C)C)NC(=O)[C@H](Cc1ccc(O)cc1)NC(=O)[C@H](CO)NC(=O)[C@H](CCC(=O)O)NC(=O)[C@H](CCC(N)=O)NC(=O)[C@H](CCCNC(=N)N)NC(=O)[C@H](CCCCN)NC(=O)[C@H](CC(=O)O)NC(=O)[C@H](CC(C)C)NC(=O)[C@H](CC(N)=O)NC(=O)[C@H](Cc1ccccc1)NC(=O)[C@H](CCC(=O)O)NC(=O)[C@H](CCCCN)NC(=O)[C@@H](NC(=O)[C@H](CC(C)C)NC(=O)[C@H](CCC(=O)O)NC(=O)[C@H](CCC(=O)O)NC(=O)[C@@H](NC(=O)[C@@H](NC(=O)[C@H](CCCNC(=N)N)NC(=O)[C@H](CCCCN)NC(=O)[C@H](C)NC(=O)[C@H](Cc1ccccc1)NC(=O)[C@H](CCC(=O)O)NC(=O)[C@H](CCC(=O)O)NC(=O)[C@H](CC(C)C)NC(=O)[C@@H](N)CO)C(C)C)C(C)C)C(C)C)[C@@H](C)CC)C(=O)N[C@@H](CO)C(=O)N[C@@H](CCC(=O)O)C(=O)N[C@@H](CCCNC(=N)N)C(=O)N[C@H](C(=O)N[C@H](C(=O)N[C@@H](CCC(=O)O)C(=O)N[C@H](C(=O)N[C@H](C(=O)N[C@@H](CC(C)C)C(=O)N[C@@H](CCCNC(=N)N)C(=O)N[C@@H](Cc1c[nH]cn1)C(=O)N[C@@H](C)C(=O)N[C@@H](C)C(=O)N[C@@H](CCC(N)=O)C(=O)N[C@H](C(=O)N[C@@H](CC(C)C)C(=O)N[C@@H](CCCCN)C(=O)O)[C@@H](C)O)C(C)C)[C@@H](C)CC)[C@@H](C)CC)[C@@H](C)CC", "test": "LC-MS/MS, noncompartmental", "system": "ICR CD-1 mouse, male, plasma", "conditions": "iv, 1 mg/kg", "endpoint": "AUC(0-last)/AUC(0-inf) ratio", "value": 0.89}
{"SMILES": "CSCC[C@H](NC(=O)CNC(=O)[C@H](CCCCN)NC(=O)[C@H](CC(C)C)NC(=O)[C@@H]1CCCN1C(=O)[C@H](CO)NC(=O)[C@H](Cc1c[nH]cn1)NC(=O)[C@H](Cc1c[nH]c2ccccc12)NC(=O)[C@H](CCCNC(=N)N)NC(=O)[C@H](CC(C)C)NC(=O)[C@H](CCCNC(=N)N)NC(=O)[C@H](Cc1c[nH]c2ccccc12)NC(=O)[C@H](CS)NC(=O)CCCCCNC(=O)CN1CCN(CC(=O)O)CCN(CC(=O)O)CCN(CC(=O)O)CC1)C(=O)O [copper-64 labelled]", "test": "ex vivo biodistribution", "system": "C57BL/6J mice bearing B16-F10 tumours, heart", "conditions": "intravenous, 1.85 MBq, 30 h", "endpoint": "tissue uptake", "value": "2.34 %ID/g"}
{"SMILES": "CN1Cc2cc(Cl)ccc2-n2c(nnc2C2CCN(c3cccc([18F])n3)CC2)C1", "system": "C57BL/6 mouse male, spleen", "conditions": "intravenous, dose not given, 5 min, together with: blocking agent 10 mg/kg", "endpoint": "tissue uptake", "value": "4.81 ± 1.2 %ID/g"}
{"SMILES": "C[C@H](O)[C@@H](NC(=O)[C@H]1CCCN1C(=O)[C@@H](CCCCN)NC(=O)[C@@H](CO)NC(=O)[C@@H](Cc1ccc(O)cc1)NC(=O)[C@@H](CC(N)=O)NC(=O)CCOCCOCCOCCNC(=O)CN1CCN(CC(=O)O)CCN(CC(=O)O)CCN(CC(=O)O)CC1)C(=O)N[C@H](CC(=O)O)C(=O)N[C@H](CCCNC(=N)N)C(=O)N[C@H](CCC(N)=O)C(=O)N[C@H](Cc1ccc(O)cc1)C(=O)N[C@H](Cc1c[nH]cn1)C(=O)N[C@H](Cc1ccccc1)C(N)=O [gallium-68 labelled]", "system": "BALB/c nude mice U-87 MG tumour, tumor", "conditions": "intravenous, 1.85 MBq, 1 h, radiolabelled", "endpoint": "tissue uptake", "value": "2.99 ± 0.03 %ID/g"}
{"SMILES": "C#Cc1c(F)ccc2cc(O)cc(-c3ncc4c(N5CC6CCC(C5)N6C(=O)OC(C)OC(=O)COCCOC)nc(OC[C@@]56CCCN5C[C@H](F)C6)nc4c3F)c12 (some centres unmarked)", "test": "item: prodrug", "system": "mouse whole blood", "conditions": "1 µM", "endpoint": "t1/2", "value": "0.59 min"}
{"SMILES": "CCCC[C@H]1C(=O)N(C)[C@@H](CCCC)C(=O)N[C@@H](CCCNC(=O)CN2CCN(CC(=O)O)CCN(CC(=O)O)CCN(CC(=O)O)CC2)C(=O)N[C@H](C(=O)NCC(N)=O)CSCC(=O)N[C@@H](Cc2ccc(O)cc2)C(=O)N(C)[C@@H](C)C(=O)N[C@@H](CC(N)=O)C(=O)N2CCC[C@H]2C(=O)N[C@@H](Cc2c[nH]cn2)C(=O)N[C@@H](CC(C)C)C(=O)N(C)CC(=O)N[C@@H](Cc2c[nH]c3ccccc23)C(=O)N[C@@H](CO)C(=O)N[C@@H](Cc2c[nH]c3ccccc23)C(=O)N1C [gallium-68 labelled]", "system": "NOD/SCID mice, CHO-hPD-L1 xenograft, stomach", "conditions": "60 min, PBS pretreatment", "endpoint": "tissue uptake", "value": "2.33 ± 0.33 %ID/g"}
{"SMILES": "CSCC[C@H](N)C(=O)N[C@@H](C)C(=O)N[C@@H](Cc1c[nH]c2ccccc12)C(=O)N[C@@H](Cc1c[nH]cn1)C(=O)N[C@@H](CC(=O)O)C(=O)N[C@@H](CC(=O)O)C(=O)N[C@@H](CCC(=O)O)C(=O)N[C@@H](CCC(=O)O)C(=O)N[C@@H](Cc1ccccc1)C(=O)N[C@@H](C)C(=O)N[C@@H](CCCNC(=N)N)C(=O)N[C@@H](CCCNC(=N)N)C(=O)N[C@@H](CCCNC(=N)N)C(=O)N[C@@H](CCCNC(=N)N)C(=O)NCCCCCC(=O)NCCCCC(NC(=O)CCCCCNC(=O)[C@H](CCCNC(=N)N)NC(=O)[C@H](CCCNC(=N)N)NC(=O)[C@H](CCCNC(=N)N)NC(=O)[C@H](CCCNC(=N)N)NC(=O)[C@H](C)NC(=O)[C@H](Cc1ccccc1)NC(=O)[C@H](CCC(=O)O)NC(=O)[C@H](CCC(=O)O)NC(=O)[C@H](CC(=O)O)NC(=O)[C@H](CC(=O)O)NC(=O)[C@H](Cc1c[nH]cn1)NC(=O)[C@H](Cc1c[nH]c2ccccc12)NC(=O)[C@H](C)NC(=O)[C@@H](N)CCSC)C(=O)NCCCCC(NC(=O)C(CCCCNC(=O)CCCCCNC(=O)[C@H](CCCNC(=N)N)NC(=O)[C@H](CCCNC(=N)N)NC(=O)[C@H](CCCNC(=N)N)NC(=O)[C@H](CCCNC(=N)N)NC(=O)[C@H](C)NC(=O)[C@H](Cc1ccccc1)NC(=O)[C@H](CCC(=O)O)NC(=O)[C@H](CCC(=O)O)NC(=O)[C@H](CC(=O)O)NC(=O)[C@H](CC(=O)O)NC(=O)[C@H](Cc1c[nH]cn1)NC(=O)[C@H](Cc1c[nH]c2ccccc12)NC(=O)[C@H](C)NC(=O)[C@@H](N)CCSC)NC(=O)CCCCCNC(=O)[C@H](CCCNC(=N)N)NC(=O)[C@H](CCCNC(=N)N)NC(=O)[C@H](CCCNC(=N)N)NC(=O)[C@H](CCCNC(=N)N)NC(=O)[C@H](C)NC(=O)[C@H](Cc1ccccc1)NC(=O)[C@H](CCC(=O)O)NC(=O)[C@H](CCC(=O)O)NC(=O)[C@H](CC(=O)O)NC(=O)[C@H](CC(=O)O)NC(=O)[C@H](Cc1c[nH]cn1)NC(=O)[C@H](Cc1c[nH]c2ccccc12)NC(=O)[C@H](C)NC(=O)[C@@H](N)CCSC)C(N)=O (some centres unmarked)", "system": "C57BL/6 mouse female, colon", "conditions": "dose not given, 6 h", "how to read": "reference: total", "endpoint": "tissue distribution", "value": "5.34% and 3.95% and 6.95%"}
